Measurements collected from several papers.
A part holds a random share of what one study measured. Positions count from the first letter of the parent shown.

Set 1
Target: CRIPT, C-terminal peptide
Technique: DHFR complementation, deep sequencing
Matrix: yeast
Setting: single substitutions, model-inferred values
Reference: wild type
Direction: higher = weaker binding
Starting sequence: ERBIN, PDZ domain 1 (human); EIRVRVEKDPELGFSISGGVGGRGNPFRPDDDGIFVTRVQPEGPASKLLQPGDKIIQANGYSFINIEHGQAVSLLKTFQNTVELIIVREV; partner TKNYKQTSV
Variant | binding free energy change
S15I | 2.84 kJ/mol
I85N | 0.00557 kJ/mol
A71I | 5.35 kJ/mol
F63Q | 3.52 kJ/mol
E11Y | -1.76 kJ/mol
I56C | 0.738 kJ/mol
I34H | 4.73 kJ/mol
R23V | -0.0768 kJ/mol

Set 2
Target: Histone acetyltransferase KAT6A, winged helix 2, GST fusion (KAT6A, Homo sapiens, UniProt Q92794, residues 85-181)
Technique: protein binding microarray
Form: double-stranded DNA, one strand shown
Matrix: in vitro
Tested at: not given
Setting: 8-mer, flanks averaged, mean of 2 arrays, mostly near background
Reference: not given
Direction: higher = stronger binding
Construct (chain): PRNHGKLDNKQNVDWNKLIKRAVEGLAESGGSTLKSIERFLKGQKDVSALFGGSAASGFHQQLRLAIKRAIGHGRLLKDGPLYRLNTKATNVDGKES
Strand | E-score
AACCGGGA | 0.0655
GGAAAAAC | -0.148
TATCCTAA | 0.0139
CACTTACC | -0.084
AAAGCAAT | 0.169
ATCACGAG | -0.104
AACCAAGA | 0.156
ACTTTACT | -0.222

Set 3
Target: Interferon regulatory factor 5, full length, phosphomimetic (IRF5, Homo sapiens, UniProt Q13568-2, residues 1-514, K96S/S451D/S453D/S456D/S462D)
Technique: protein-binding microarray
Form: double-stranded DNA, one strand shown
Matrix: in vitro
Tested at: 250 nM
Setting: 60-bp whole probe
Added: salmon DNA 0.4 mg/ml
Reference: random background probes
Direction: higher = stronger binding
Constant ends, left off below: GCCTAGCAC … GTCTTGATTCGCTTGACGCTGCTG
Strand | log fluorescence
TCAGATCTCAGTATCGATTAGTGCTAG | 6.49 z-score
AGATGAAAAGTGAAGCCTAGGTGCTAG | 0.159 z-score
CTGTTTCTACTGTCTGTTTCCGTGCTA | 2.59 z-score
TTAGGTATCGGGTTTCGGCTAGTGCTA | 6.32 z-score
TCAGAATTCAGAATGGGACTGTGCTAG | -0.237 z-score
TCATCATTTTCTTTAACACTGTGCTAG | 1.39 z-score
TTCGGTATCGGTATCGGTTAGTGCTAG | 10.1 z-score
GAGGATATCAGTTTCGAGACGTGCTAG | 5.98 z-score

Single results of other studies
Starting sequence: viral docking peptide; TSVRRALFTGGSD
Variant | target | assay | test system | conditions | how to read | endpoint | value
R5H | CCNA1, cyclin fold, Cln2 fusion (human) | yeast growth competition, sequencing | yeast | strong parent motif | reference: not given, higher = stronger binding | normalised enrichment score | 0.463

Some of these lines once more (set 2):
Strand | E-score
AACCGGGA | 0.0655
GGAAAAAC | -0.148
TATCCTAA | 0.0139
CACTTACC | -0.084
